Measured values collected from several papers.
Each line is one published result; not all experiments were run side by side. “And” joins repeats or separate records; there may be more than shown. ± gives the spread as reported.
CYP2B6: Cytochrome P450 2B6 (CYP2B6, Homo sapiens, UniProt P20813)
Sequence of UniProt Q06124 (whole entry, looked up): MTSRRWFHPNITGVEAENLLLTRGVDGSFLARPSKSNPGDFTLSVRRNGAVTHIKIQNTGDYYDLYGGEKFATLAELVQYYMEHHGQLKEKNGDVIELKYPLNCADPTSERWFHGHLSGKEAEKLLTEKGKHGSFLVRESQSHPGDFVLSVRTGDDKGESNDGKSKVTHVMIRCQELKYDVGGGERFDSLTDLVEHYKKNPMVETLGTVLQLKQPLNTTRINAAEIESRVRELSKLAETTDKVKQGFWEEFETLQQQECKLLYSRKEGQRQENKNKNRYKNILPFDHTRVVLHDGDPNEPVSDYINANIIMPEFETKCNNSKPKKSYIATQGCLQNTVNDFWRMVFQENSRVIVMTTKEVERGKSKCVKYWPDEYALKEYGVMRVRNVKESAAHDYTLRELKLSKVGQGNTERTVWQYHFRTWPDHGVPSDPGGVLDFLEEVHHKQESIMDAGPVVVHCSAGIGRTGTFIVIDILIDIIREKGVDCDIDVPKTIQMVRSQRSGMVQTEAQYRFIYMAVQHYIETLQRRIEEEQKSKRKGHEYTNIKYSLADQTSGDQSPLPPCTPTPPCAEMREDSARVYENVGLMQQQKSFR
Sequence of UniProt P20813 (whole entry, looked up): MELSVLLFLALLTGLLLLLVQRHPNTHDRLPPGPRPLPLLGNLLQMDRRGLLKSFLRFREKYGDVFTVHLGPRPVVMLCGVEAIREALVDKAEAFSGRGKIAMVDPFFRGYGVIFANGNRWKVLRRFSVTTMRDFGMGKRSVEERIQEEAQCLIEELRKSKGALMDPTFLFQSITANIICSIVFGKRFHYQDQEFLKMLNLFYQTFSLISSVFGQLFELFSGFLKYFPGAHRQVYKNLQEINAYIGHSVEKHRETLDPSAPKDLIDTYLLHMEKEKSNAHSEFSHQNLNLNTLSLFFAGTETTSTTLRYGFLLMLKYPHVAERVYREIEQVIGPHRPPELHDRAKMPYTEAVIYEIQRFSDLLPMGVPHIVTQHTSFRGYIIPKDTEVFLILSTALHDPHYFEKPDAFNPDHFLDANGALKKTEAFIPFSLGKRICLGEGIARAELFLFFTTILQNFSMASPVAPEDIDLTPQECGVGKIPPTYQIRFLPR
Sequence of UniProt P25103 (whole entry, looked up): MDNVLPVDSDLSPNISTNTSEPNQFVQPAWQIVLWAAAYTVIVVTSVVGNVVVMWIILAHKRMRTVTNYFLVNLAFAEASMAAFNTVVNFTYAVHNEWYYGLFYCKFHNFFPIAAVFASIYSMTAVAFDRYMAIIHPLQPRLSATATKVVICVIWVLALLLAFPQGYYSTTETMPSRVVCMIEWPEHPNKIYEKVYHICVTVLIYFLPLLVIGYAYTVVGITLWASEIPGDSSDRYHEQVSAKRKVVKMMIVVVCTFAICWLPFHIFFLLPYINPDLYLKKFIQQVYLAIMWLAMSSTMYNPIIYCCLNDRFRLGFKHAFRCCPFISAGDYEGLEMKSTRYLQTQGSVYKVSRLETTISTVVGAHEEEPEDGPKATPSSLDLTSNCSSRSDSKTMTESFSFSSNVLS
Sequence of UniProt O70528 (whole entry, looked up): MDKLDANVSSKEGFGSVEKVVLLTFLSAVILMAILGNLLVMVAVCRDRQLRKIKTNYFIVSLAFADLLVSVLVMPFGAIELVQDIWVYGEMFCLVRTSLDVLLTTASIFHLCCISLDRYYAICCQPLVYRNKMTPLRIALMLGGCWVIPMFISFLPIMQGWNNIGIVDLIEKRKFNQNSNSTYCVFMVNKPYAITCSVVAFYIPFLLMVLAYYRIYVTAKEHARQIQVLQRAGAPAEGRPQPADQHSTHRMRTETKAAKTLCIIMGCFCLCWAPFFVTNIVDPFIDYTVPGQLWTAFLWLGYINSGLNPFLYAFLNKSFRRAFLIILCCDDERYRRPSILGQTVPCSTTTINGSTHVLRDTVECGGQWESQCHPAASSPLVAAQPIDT
Sequence of UniProt P18858 (whole entry, looked up): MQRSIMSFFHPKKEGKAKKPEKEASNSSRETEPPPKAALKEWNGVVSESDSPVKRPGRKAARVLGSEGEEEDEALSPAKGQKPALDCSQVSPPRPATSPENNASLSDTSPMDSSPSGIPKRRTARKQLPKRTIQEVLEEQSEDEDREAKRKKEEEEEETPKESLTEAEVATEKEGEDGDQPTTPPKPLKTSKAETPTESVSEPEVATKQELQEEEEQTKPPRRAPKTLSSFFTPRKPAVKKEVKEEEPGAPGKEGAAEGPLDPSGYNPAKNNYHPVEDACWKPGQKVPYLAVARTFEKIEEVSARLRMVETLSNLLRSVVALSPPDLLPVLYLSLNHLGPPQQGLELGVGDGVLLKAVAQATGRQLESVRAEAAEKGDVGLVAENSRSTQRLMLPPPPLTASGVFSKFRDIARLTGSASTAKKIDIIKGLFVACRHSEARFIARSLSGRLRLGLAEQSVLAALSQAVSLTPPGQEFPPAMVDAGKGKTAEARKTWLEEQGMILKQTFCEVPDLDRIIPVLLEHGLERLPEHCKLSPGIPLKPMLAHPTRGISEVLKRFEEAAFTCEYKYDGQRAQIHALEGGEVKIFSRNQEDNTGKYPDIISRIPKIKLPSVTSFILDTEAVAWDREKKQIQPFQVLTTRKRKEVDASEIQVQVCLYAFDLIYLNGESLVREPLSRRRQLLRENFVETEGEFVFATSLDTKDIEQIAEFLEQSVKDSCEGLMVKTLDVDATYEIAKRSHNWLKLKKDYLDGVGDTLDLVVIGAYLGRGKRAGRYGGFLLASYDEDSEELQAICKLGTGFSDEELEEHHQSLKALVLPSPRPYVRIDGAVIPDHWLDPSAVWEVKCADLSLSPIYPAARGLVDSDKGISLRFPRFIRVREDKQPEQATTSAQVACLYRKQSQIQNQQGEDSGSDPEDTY
Sequence of UniProt Q969T7 (whole entry, looked up): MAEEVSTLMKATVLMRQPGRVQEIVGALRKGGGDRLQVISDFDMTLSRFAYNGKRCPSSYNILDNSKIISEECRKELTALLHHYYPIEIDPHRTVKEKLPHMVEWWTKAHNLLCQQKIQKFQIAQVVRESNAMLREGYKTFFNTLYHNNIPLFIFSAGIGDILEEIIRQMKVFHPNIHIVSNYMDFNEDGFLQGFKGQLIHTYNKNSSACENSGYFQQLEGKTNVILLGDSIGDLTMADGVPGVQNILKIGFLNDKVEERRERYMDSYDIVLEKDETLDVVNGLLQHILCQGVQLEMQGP
Sequence of UniProt Q6P6C2 (whole entry, looked up): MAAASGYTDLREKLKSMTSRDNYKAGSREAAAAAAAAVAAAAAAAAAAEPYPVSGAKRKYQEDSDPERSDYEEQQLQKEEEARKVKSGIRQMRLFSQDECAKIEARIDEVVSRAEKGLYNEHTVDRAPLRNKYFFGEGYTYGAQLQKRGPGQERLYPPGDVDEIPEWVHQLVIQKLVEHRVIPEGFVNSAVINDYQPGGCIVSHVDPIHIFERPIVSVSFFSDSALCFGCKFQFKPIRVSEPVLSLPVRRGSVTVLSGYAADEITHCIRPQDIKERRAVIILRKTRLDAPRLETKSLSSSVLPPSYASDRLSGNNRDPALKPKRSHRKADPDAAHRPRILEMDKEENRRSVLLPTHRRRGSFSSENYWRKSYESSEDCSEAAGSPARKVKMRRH
Sequence of UniProt P10635 (whole entry, looked up): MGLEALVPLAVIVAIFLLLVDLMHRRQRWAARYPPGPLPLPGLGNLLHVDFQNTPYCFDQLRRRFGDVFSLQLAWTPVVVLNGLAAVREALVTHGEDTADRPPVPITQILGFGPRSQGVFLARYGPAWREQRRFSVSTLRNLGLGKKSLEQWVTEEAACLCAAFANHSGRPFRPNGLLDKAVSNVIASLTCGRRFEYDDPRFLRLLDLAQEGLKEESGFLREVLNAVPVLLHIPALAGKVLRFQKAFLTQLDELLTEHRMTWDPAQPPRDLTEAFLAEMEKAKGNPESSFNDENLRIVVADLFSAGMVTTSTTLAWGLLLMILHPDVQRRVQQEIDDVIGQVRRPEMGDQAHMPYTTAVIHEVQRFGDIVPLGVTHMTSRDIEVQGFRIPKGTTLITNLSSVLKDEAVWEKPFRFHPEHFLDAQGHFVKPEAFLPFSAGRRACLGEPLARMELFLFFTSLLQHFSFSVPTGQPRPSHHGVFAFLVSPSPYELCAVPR
Sequence of UniProt Q2HRB6 (whole entry, looked up): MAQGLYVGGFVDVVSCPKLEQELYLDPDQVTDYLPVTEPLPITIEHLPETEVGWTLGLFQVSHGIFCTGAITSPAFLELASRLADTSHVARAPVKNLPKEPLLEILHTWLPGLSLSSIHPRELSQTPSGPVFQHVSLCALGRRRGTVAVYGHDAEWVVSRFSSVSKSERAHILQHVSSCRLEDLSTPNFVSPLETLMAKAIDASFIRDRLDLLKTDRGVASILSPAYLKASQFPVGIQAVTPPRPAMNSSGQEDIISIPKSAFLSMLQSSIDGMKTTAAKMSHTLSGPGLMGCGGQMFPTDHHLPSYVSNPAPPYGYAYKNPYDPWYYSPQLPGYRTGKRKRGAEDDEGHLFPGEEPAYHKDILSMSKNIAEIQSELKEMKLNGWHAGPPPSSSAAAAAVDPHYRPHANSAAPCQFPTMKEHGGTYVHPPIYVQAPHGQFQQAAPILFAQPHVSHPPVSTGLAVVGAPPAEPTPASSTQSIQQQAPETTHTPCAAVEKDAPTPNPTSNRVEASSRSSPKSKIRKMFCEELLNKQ
Sequence of UniProt P42330 (whole entry, looked up): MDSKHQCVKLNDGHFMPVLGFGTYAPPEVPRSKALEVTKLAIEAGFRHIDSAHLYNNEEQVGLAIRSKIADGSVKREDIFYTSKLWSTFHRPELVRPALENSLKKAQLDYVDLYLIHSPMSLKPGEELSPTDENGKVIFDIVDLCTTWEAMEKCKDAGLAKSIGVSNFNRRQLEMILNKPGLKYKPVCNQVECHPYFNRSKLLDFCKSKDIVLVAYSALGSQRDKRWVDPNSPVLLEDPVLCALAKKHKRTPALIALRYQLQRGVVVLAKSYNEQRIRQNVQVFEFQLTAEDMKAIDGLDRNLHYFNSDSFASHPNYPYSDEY

NC1CCc2cc(O)c(O)cc2C1 (stereo not shown) — IC50 (Carbamate kinase (Giardia intestinalis, UniProt A8BB85); enzyme activity, inhibitor, coupled absorbance): 15.7 µM
N#C[C@@]1(c2ccc3c(N)ncnn23)O[C@H](COP(=O)(O)OP(=O)(O)OP(=O)(O)O)[C@@H](O)[C@H]1O — IC50 (DNA polymerase beta (POLB, Homo sapiens, UniProt P06746); enzyme activity, inhibitor): > 200 µM
O=C1C=CC(=O)C(c2cc(Cl)ccc2Cl)=C1 — IC50 (PTPN11 (Homo sapiens, UniProt Q06124); enzyme activity, inhibitor): ~0.1 µg/mL and 0.1 µg/mL
C/C=C1/CN2CCc3c([nH]c4ccccc34)[C@@H]2C[C@@H]1/C(=C\OC)C(=O)OC — IC50 (HTR4 (Cavia porcellus, UniProt O70528); ligand displacement, radioligand; cell membranes): 94.5 µM
CCCCCCCCCC(=O)N[C@@H](CCCNC(=N)N)C(=O)N[C@H](C(=O)N[C@@H](CCCCN)C(=O)N[C@@H](CCCNC(=N)N)C(=O)CCl)C(C)C — IC50 (Proprotein convertase subtilisin/kexin type 5 (Homo sapiens, UniProt Q92824); enzyme activity, inhibitor): 0.000126 µM
CSCC[C@H](N)C(=O)N[C@@H](CC(C)C)C(=O)N[C@@H](Cc1ccccc1)C(=O)N[C@@H](CO)C(=O)NCC(=O)O — IC50 (ACE (Homo sapiens, UniProt P12821); enzyme activity, inhibitor, HPLC): 185 µM
COC1CC(=O)N(C)C=CCCCC(=O)N(C)C(C(C)C)C(=O)N(C)C(CC(C)C)C(=O)OC(C(C)C)CC(C)C1 (stereo not shown) — IC50 (TACR1 (Homo sapiens, UniProt P25103); β-arrestin recruitment, antagonist): > 100 µM
COc1ccc(N=Nc2cccc(NC(=O)CCCCCCC(=O)NO)c2)cc1 — IC50 (HDAC1 (Homo sapiens, UniProt Q13547); enzyme activity, inhibitor; cis isomer, irradiated): 0.047 ± 0.011 µM
CNCP(=O)(O)O — IC50 (Urease (Canavalia ensiformis, UniProt P07374); enzyme activity, inhibitor, absorbance; pH 7): 678 µM
CC(C)[C@H](NC(=O)c1ccc(CNc2nc3c(c(=O)[nH]2)CCC3)cc1)C(=O)NC1CNC1 — IC50 (MMP2 (Homo sapiens, UniProt P08253); enzyme activity, inhibitor): > 5 µM
CC[C@H](C)[C@H](NC(=O)[C@H](CCCNC(=N)N)NC(=O)[C@@H](NC(=O)[C@H](CO)NC(=O)[C@H](CS)NC(=O)[C@H](CCCNC(=N)N)NC(=O)[C@H](CCCNC(=N)N)NC(=O)[C@H](CCCNC(=N)N)NC(=O)[C@H](CCC(N)=O)NC(=O)[C@H](CCCNC(=N)N)NC(=O)[C@H](CCCNC(=N)N)NC(=O)[C@H](CCCCN)NC(=O)[C@H](CCCCN)NC(=O)[C@@H](N)CCCNC(=N)N)[C@@H](C)O)C(=O)N[C@@H](CCCNC(=N)N)C(=O)N[C@@H](CCCNC(=N)N)C(=O)N[C@@H](CCC(N)=O)C(=O)N[C@@H](CC(C)C)C(N)=O — IC50 (NADPH oxidase 2 (CYBB, Homo sapiens, UniProt P04839); enzyme activity, inhibitor): 10.3 µM
O=C(O)c1cc[c]([Hg][Cl])cc1 — IC50 (Trypanothione synthetase (Trypanosoma brucei brucei, UniProt Q586P2); enzyme activity, BIOMOL Green phosphate release; 1 h preincubation): 2 µM
CC(=O)N[C@@H](CC(C)C)C(=O)N[C@@H](CCC(=O)O)C(=O)N[C@@H](CO)C(=O)N[C@@H](CC(=O)O)C(=O)CCl — IC50 (Caspase-1 (CASP1, Homo sapiens, UniProt P29466); enzyme activity, inhibitor, fluorescence): 5.67 µM
O=C(NCc1nc(-c2ccc(Br)cc2)c[nH]1)Nc1ncc(Sc2ccccn2)s1 — IC50 (enoyl-ACP reductase FabK (Clostridioides difficile, UniProt A0A031WIF2); enzyme activity, inhibitor, NADH fluorescence; together with: crotonyl-CoA 325 µM): 1.27 µM
Nc1nc2c(c(=O)[nH]1)[n+](Cc1ccc(OS(=O)(=O)F)cc1)cn2[C@@H]1O[C@H](COP(=O)(O)O)[C@@H](O)[C@H]1O — IC50 (NT5C3B (Homo sapiens, UniProt Q969T7); enzyme activity, inhibitor, absorbance; pH 7.5): 16.9 µM
CSCC[C@H](NC(=O)[C@H](Cc1ccccc1)NC(=O)[C@H](Cc1c[nH]cn1)NC(=O)CNC(=O)[C@@H](NC(=O)[C@H](C)NC(=O)[C@H](Cc1c[nH]c2ccccc12)NC(=O)[C@H](CCC(N)=O)NC(=O)[C@@H]1CCCN1C(=O)CNC(=O)CNC(=O)CNC(=O)[C@@H]1CCC(=O)N1)C(C)C)C(N)=O — IC50 (NMBR (Homo sapiens, UniProt P28336); NMBR activity, cell-based): < 0.001 µM
CNc1nc(SC)nc2ccccc12 — IC50 (Cytochrome P450 2D6 (CYP2D6, Homo sapiens, UniProt P10635); inhibitor): > 50 µM
CCCCCc1cc(O)c2c(c1)OC(C)(C)C1CCC(C(=O)OC3OC(C(=O)O)C(O)C(O)C3O)=CC21 (stereo not shown) — IC50 (CYP2B6; inhibitor; HEK293 overexpressing CYP2B6, recombinant microsomes; pH 7.4, corrected for incubation binding, together with: bupropion): 2.5 ± 0.72 µM
CC1(C)OC2OC(C(CCO)NCCCNC(CCO)C3OC4OC(C)(C)OC4C3OCc3ccccc3)C(OCc3ccccc3)C2O1 (stereo not shown) — IC50 (DNA ligase 1 (Homo sapiens, UniProt P18858); enzyme activity, inhibitor, radiometric): 320 µM
O=C(N1CCOCC1)N1CCN(c2ccc(Cl)cc2)CC1 — IC50 (AKR1C3 (Homo sapiens, UniProt P42330); diaphorase activity; together with: PQ): 0.068 µM
OC[C@H]1NCC[C@@H](O)[C@H]1O — IC50 (GLA (Homo sapiens, UniProt P06280); enzyme activity, inhibitor, absorbance; pH 4.5): > 100 µM
CC(C)[C@H](NC(=O)c1ccc(CCc2nc3c(c(=O)[nH]2)CCC3)cc1)C(=O)NC1CNC1 — IC50 (MMP8 (Homo sapiens, UniProt P22894); enzyme activity, inhibitor): > 5 µM
CC(C)[C@H](N)C(=O)N[C@H]1CSCC(=NOCC(=O)NCP(=O)(Oc2ccccc2)Oc2ccccc2)CSC[C@@H](C(=O)NCC(N)=O)NC(=O)[C@@H]2CCCN2C(=O)[C@H](C(C)C)NC(=O)[C@H](C)NC(=O)[C@H](CCCNC(=N)N)NC(=O)[C@H](Cc2ccc(O)cc2)NC(=O)[C@H](CCCNC(=N)N)NC(=O)[C@H](CCC(N)=O)NC1=O — IC50 (Fluorophosphonate-binding serine hydrolase F (Staphylococcus aureus, UniProt Q2FUY3); enzyme activity, inhibitor; 1 h preincubation, together with: 4-methylumbelliferyl heptanoate): ~35 µM
COc1ccc(F)cc1S(=O)(=O)Nc1cnc2c(c1)C(=O)NCCO2 — IC50 (CYP2B6; enzyme activity, inhibitor; human, liver microsomes; with preincubation): > 100 µM
CC(=O)N[C@H]1[C@@H](OC[C@H](NC(=O)CNC(=O)[C@@H]2CCCN2C(=O)[C@H](C)NC(=O)[C@@H]2CCCN2C(=O)[C@@H](N)CCCNC(=N)N)C(=O)N[C@H](C(=O)N[C@@H](C)C(=O)N2CCC[C@H]2C(=O)N2CCC[C@H]2C(=O)N[C@@H](C)C(=O)N[C@@H](Cc2c[nH]cn2)C(=O)NCC(=O)O)[C@@H](C)O)O[C@H](CO)[C@H](O)[C@@H]1O — IC50 (mouse monoclonal antibody; antibody binding, inhibitor, competition ELISA; 1 h): 2.89 µM
O=C1c2c(ccc(O)c2O)CN1Cc1ccc(F)c(Cl)c1 — IC50 (Gag-Pol polyprotein, integrase (gag-pol, Human immunodeficiency virus 1, UniProt P12497); strand transfer, inhibitor, gel-based; recombinant wild-type integrase): 1.1 ± 0.2 µM
CCCC[C@H](NC(=O)[C@H](C)NC(=O)[C@H](CCC(=O)O)NC(=O)[C@H](Cc1ccccc1)NC[C@H](C)NC(=O)[C@@H](NC(=O)[C@@H](N)CCCNC(=N)N)C(C)C)C(=O)O — IC50 (Gag-Pol polyprotein, protease (gag-pol, Human immunodeficiency virus 1, UniProt P12497); enzyme activity, inhibitor, FRET; NL4-3 wild type): > 1 µM
Cc1nc([C@H](NC(=O)c2ccc(-c3ccc(Cl)cc3)[nH]2)[C@@H]2CCCCN2)sc1CO — IC50 (Gag-Pol polyprotein, reverse transcriptase (gag-pol, Human immunodeficiency virus 1, UniProt P12497)): 43.4 µM
CC(=O)N1CCC[C@H]1C(=O)N[C@@H](CC(C)C)C(=O)N[C@H]1C[C@H](CCCCCCCCc2ccccc2)C(=O)NCCCC[C@@H](C(N)=O)NC(=O)[C@H]([C@@H](C)OP(=O)(O)O)NC(=O)[C@H](CO)NC1=O — IC50 (Serine/threonine-protein kinase PLK3, polo-box domain (PLK3, Homo sapiens, UniProt Q9H4B4); enzyme activity, inhibitor): 1.1 ± 0.06 µM
N#Cc1cn([C@@H]2O[C@H](CSCC[C@H](N)C(=O)O)[C@@H](O)[C@H]2O)c2ncnc(N)c12 — IC50 (RNA demethylase ALKBH5 (Homo sapiens, UniProt Q6P6C2); RNA demethylase activity, inhibitor): > 50 µM
O=C(Nc1ccc(-c2ncn[nH]2)cc1Cc1ccccc1)c1cccc(CC2CCCCC2)n1 — IC50 (Capsid scaffolding protein, protease domain (Human herpesvirus 8 type P, UniProt Q2HRB6); pH 8): no inhibition

Repeated from above:
CC1(C)OC2OC(C(CCO)NCCCNC(CCO)C3OC4OC(C)(C)OC4C3OCc3ccccc3)C(OCc3ccccc3)C2O1 (stereo not shown) — IC50 (DNA ligase 1 (Homo sapiens, UniProt P18858); enzyme activity, inhibitor, radiometric): 320 µM
O=C(N1CCOCC1)N1CCN(c2ccc(Cl)cc2)CC1 — IC50 (AKR1C3 (Homo sapiens, UniProt P42330); diaphorase activity; together with: PQ): 0.068 µM
